Values quoted from earlier work, collected from citations in different studies.
Each line is one published result; not all experiments were run side by side.
UniProt Q9UHD2, sequence (whole entry, looked up): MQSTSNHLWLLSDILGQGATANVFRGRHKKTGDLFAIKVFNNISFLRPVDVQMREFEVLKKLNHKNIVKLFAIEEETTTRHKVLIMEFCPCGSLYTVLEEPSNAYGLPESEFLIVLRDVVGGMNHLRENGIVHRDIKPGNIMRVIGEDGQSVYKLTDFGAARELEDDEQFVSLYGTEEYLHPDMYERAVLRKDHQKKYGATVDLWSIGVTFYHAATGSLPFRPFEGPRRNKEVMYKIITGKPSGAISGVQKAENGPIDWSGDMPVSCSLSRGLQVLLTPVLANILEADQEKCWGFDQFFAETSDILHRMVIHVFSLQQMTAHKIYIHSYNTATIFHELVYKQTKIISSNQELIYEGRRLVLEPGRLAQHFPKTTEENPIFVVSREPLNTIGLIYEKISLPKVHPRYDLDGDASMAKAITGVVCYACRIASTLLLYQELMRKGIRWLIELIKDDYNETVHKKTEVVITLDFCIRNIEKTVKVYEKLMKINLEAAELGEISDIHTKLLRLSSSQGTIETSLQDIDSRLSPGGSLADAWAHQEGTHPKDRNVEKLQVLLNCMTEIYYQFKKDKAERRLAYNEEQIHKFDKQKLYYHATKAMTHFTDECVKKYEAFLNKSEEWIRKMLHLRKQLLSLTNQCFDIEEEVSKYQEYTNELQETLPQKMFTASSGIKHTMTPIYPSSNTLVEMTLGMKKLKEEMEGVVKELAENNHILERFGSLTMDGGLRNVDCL

For `Cc1[nH]c(C)c(-c2ccc(Oc3ccc(F)cc3)cc2)c(=O)c1Cl`, the IC50 was 50 nM (Plasmodium falciparum; whole cell extended time; 3D7; 72 h).
The MIC of `CCN1CCN(c2cc3c(cc2F)c(=O)c(C(=O)O)cn3C2CC2)CC1` is reported as 0.5 µg/mL (Staphylococcus aureus).
The MIC of `CC1(C)S[C@@H]2[C@H](NC(=O)[C@H](N)c3ccccc3)C(=O)N2[C@H]1C(=O)O` is reported as over 16 µg/mL (Pseudomonas aeruginosa; clinical isolate RKI-No_627/13).
With `CCCCc1ccc(-c2ccc(-c3c(C)[nH]c(C)c(Br)c3=O)cn2)cc1` the IC50 was 60 nM (Plasmodium falciparum; whole cell extended time; 3D7; 72 h).
The MIC of `Oc1ccc(-c2nc(-c3ccc(OC4CCCC4)cc3)no2)cc1` is reported as over 128 µg/mL (Enterobacter aerogenes; ATCC 35029).
`Oc1ccc(-c2nc(-c3ccc(OC4CCCC4)cc3)no2)cc1` has an MIC of over 128 µg/mL (Lactobacillus gasseri; HM-644).
The MIC of `CCCCCCc1ccc(Oc2ccccc2Cl)c(O)c1` is reported as 1.57 µg/mL (Mycobacterium tuberculosis; H37Rv).
For `CNC(C)C1CCC(N)C(OC2C(N)CC(N)C(OC3OCC(C)(O)C(NC)C3O)C2O)O1` (centres unmarked), the MIC was over 8 µg/mL (Acinetobacter baumannii; clinical isolate RKI-No_272/16).
The MIC of `CCc1c(Cl)c(O)c(Cl)c(O)c1C(=O)O[C@H]1[C@H](O)[C@H](OC)[C@H](OC/C2=C\C=C\C[C@H](O)/C(C)=C/[C@H](CC)[C@@H](O[C@@H]3OC(C)(C)[C@@H](OC(=O)C(C)C)[C@H](O)[C@@H]3O)/C(C)=C/C(C)=C/C[C@@H]([C@@H](C)O)OC2=O)O[C@@H]1C` is reported as over 32 µg/mL (Lactobacillus sp.; HM-102).
For `C[C@H]1COCCN1c1nc(-c2cnc(N)cc2C(F)F)nc(N2CCOCC2)n1`, the GI50 was 403 nM (LS174T).
The MIC of `O=C(/C=C/c1ccccc1)c1ccccc1` is reported as over 4.86 mM (Staphylococcus aureus).
For `Nc1cc(C(F)(F)F)c(-c2nc(N3CCOCC3)nc(N3CCOCC3)n2)cn1`, the remaining activity was 76% (TBK1 (Homo sapiens, UniProt Q9UHD2); enzyme activity; 10 µM; baseline: untreated).
`CC1(C)S[C@@H]2[C@H](NC(=O)[C@H](N)c3ccccc3)C(=O)N2[C@H]1C(=O)O` gave an MIC of 0.06 to 4 µg/mL (Streptococcus dysgalactiae).
With `CCc1c(Cl)c(O)c(Cl)c(O)c1C(=O)O[C@H]1[C@H](O)[C@H](OC)[C@H](OC/C2=C\C=C\C[C@H](O)/C(C)=C/[C@H](CC)[C@@H](O[C@@H]3OC(C)(C)[C@@H](OC(=O)C(C)C)[C@H](O)[C@@H]3O)/C(C)=C/C(C)=C/C[C@@H]([C@@H](C)O)OC2=O)O[C@@H]1C` the MIC was over 8 µg/mL (Clostridioides difficile; 23828 resistant clinical isolate).
The MIC of `CC(C)(O/N=C(\C(=O)N[C@@H]1C(=O)N2C(C(=O)[O-])=C(C[n+]3ccccc3)CS[C@H]12)c1csc(N)n1)C(=O)O` is reported as at most 2 µg/mL (Klebsiella pneumoniae; clinical isolate RKI-No_95/16).
The MIC of `O=C(N[C@H](CO)[C@H](O)c1ccc([N+](=O)[O-])cc1)C(Cl)Cl` is reported as 1 to 8 µg/mL (Bacillus subtilis).
With `FC(F)(F)c1ccc(Oc2ccc(-c3noc(-c4ccc5[nH]ccc5c4)n3)cc2)cc1` the MIC was over 128 µg/mL (Enterobacter aerogenes; ATCC 35029).

For quick reference, copied from above:
For `Cc1[nH]c(C)c(-c2ccc(Oc3ccc(F)cc3)cc2)c(=O)c1Cl`, the IC50 was 50 nM (Plasmodium falciparum; whole cell extended time; 3D7; 72 h).
The MIC of `CC(C)(O/N=C(\C(=O)N[C@@H]1C(=O)N2C(C(=O)[O-])=C(C[n+]3ccccc3)CS[C@H]12)c1csc(N)n1)C(=O)O` is reported as at most 2 µg/mL (Klebsiella pneumoniae; clinical isolate RKI-No_95/16).
